Experimental data of several laboratories.
Numbered parts are unrelated; each lists some results of a single study.
Sequence of UniProt Q15349 (whole entry, looked up): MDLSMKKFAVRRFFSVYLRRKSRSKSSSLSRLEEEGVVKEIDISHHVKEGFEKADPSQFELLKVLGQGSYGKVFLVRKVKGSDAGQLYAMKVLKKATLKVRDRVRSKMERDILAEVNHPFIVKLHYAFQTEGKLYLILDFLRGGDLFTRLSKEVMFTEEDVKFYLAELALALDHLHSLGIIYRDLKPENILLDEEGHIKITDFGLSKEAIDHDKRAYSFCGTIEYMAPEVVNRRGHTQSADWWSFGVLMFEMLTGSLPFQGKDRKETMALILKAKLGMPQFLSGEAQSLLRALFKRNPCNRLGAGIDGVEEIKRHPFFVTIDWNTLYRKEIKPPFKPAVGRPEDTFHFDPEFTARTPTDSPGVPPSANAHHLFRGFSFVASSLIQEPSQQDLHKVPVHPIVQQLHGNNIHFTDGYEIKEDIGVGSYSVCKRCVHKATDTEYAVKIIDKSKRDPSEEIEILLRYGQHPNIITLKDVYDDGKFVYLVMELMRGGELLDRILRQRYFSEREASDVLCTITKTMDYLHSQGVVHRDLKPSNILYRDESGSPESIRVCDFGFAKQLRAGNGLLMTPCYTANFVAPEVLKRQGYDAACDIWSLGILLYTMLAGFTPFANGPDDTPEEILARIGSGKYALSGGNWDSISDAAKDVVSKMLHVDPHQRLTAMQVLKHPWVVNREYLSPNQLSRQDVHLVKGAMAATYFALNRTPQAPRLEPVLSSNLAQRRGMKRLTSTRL
Sequence of UniProt P49841 (whole entry, looked up): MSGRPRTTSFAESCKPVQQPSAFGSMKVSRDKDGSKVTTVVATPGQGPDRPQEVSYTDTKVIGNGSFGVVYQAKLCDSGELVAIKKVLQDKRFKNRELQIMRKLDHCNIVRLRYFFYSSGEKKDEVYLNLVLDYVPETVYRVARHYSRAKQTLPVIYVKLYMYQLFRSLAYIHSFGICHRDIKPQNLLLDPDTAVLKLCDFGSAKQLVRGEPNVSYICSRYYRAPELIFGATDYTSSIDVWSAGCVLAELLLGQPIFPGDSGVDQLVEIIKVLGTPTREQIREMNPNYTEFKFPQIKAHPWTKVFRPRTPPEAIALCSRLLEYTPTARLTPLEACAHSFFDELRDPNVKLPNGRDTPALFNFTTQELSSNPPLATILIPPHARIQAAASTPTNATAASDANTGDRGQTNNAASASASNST
Sequence of UniProt Q99558 (whole entry, looked up): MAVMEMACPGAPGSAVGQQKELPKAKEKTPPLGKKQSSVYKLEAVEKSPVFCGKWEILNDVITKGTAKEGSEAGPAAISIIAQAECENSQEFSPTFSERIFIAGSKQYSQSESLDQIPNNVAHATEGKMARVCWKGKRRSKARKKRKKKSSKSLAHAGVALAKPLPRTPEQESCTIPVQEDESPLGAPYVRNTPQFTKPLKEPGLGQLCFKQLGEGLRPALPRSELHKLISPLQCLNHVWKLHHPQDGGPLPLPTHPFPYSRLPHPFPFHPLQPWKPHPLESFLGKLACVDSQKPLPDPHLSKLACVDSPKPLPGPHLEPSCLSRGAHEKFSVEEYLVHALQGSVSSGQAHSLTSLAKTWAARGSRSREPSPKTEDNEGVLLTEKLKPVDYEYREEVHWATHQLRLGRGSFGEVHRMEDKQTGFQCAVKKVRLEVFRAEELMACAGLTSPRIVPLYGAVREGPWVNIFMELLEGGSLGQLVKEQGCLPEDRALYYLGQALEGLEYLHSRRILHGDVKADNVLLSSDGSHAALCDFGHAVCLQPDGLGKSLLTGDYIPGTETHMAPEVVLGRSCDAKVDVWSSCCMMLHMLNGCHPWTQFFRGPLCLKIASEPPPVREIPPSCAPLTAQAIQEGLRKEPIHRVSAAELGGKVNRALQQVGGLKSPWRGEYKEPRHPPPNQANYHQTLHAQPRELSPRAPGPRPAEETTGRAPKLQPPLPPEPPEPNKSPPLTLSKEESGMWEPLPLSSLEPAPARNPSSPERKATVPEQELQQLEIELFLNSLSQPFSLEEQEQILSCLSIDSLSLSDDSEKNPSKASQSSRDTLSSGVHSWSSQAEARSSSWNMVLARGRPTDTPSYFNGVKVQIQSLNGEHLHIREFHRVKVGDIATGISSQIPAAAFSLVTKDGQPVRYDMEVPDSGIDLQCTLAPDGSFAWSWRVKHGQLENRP
Sequence of UniProt P22607 (whole entry, looked up): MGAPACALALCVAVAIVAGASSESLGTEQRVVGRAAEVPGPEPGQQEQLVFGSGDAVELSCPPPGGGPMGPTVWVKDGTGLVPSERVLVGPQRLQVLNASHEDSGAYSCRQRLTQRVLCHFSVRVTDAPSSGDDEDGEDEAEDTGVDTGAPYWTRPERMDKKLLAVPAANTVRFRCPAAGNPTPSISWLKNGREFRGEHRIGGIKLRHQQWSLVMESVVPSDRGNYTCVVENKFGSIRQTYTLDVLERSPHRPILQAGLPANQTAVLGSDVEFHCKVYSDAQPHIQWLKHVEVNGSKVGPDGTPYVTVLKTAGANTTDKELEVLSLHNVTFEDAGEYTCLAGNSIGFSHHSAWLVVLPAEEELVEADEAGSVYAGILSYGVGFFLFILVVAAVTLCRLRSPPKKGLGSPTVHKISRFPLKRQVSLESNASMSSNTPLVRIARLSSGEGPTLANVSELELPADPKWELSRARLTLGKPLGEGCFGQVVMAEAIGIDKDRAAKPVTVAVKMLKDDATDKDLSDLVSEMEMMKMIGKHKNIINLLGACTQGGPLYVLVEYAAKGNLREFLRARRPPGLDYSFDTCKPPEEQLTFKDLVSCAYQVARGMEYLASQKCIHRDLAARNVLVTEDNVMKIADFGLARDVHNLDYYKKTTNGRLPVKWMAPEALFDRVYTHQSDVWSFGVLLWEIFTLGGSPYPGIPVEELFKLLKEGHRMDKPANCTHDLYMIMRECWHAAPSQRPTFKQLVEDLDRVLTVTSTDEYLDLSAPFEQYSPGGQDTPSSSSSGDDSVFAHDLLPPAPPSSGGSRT
Sequence of UniProt P52333 (whole entry, looked up): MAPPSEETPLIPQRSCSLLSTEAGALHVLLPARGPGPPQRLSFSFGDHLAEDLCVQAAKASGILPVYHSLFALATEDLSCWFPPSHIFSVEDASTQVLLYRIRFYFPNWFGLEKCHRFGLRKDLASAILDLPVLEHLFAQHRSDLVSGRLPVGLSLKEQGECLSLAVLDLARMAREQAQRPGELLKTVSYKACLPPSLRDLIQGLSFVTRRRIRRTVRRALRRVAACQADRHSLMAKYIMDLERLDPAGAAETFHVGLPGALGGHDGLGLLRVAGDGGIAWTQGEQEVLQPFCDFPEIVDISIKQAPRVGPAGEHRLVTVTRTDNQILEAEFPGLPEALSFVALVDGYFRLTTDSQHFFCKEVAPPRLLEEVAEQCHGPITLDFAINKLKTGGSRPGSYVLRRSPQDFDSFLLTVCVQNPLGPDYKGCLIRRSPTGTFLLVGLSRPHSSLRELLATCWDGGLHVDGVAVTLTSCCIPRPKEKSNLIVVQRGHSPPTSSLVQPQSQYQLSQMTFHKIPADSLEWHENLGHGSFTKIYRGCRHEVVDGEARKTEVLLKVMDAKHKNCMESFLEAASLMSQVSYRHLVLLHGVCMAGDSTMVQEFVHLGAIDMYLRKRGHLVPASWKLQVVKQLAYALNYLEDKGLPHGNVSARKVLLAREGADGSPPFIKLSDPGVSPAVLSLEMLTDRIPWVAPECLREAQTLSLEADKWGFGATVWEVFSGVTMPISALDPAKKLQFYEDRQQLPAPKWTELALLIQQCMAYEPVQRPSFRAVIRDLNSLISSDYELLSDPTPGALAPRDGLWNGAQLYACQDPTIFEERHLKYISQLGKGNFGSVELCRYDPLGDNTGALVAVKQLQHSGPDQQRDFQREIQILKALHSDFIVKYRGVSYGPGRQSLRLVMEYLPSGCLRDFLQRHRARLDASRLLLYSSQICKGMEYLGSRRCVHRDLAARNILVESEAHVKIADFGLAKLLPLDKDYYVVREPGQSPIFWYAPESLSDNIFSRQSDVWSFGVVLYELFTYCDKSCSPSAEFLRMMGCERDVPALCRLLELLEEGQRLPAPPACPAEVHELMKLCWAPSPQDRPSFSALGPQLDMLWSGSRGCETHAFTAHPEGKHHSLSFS
Sequence of UniProt P78368 (whole entry, looked up): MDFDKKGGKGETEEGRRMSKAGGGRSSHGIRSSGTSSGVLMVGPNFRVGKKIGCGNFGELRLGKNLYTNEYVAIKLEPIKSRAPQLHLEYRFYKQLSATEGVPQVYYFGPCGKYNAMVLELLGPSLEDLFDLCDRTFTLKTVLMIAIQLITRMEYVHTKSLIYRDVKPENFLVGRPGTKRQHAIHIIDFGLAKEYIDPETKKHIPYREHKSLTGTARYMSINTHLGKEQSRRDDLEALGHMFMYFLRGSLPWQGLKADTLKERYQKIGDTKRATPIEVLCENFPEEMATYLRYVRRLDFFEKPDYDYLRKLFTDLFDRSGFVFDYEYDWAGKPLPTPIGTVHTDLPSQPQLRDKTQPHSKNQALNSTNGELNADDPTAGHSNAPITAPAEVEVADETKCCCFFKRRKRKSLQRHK

Study 1
SMILES: CS(=O)(=O)c1cc(C2(NC(=O)c3cncc4c3cnn4-c3ccc(F)cc3)CC2)ccn1
Effect on: cell-free assay
Method: competition with immobilised ligand
Concentration: 1 µM
| target | remaining binding [%] |
| --- | --- |
| Serine/threonine-protein kinase D1 (PRKD1, Homo sapiens, UniProt Q15139) | 100 |
| Ribosomal protein S6 kinase alpha-2, N-terminal kinase domain (RPS6KA2, Homo sapiens, UniProt Q15349) | 100 |
| Receptor tyrosine-protein kinase erbB-2 (ERBB2, Homo sapiens, UniProt P04626) | 100 |

Study 2
Species: human
Medium: microsomes or S9
Concentration: 2 µM
Time: 0.5 h
| SMILES | remaining compound |
| --- | --- |
| CN1CCN(C(=O)CCn2c(-c3ccccc3)cc3ccccc32)CC1 | 4.2% |
| Cn1ccc(-c2ccc(-c3cc(Br)cnc3N)nc2)n1 | 27.8% |
| CCN(CC)c1ccc(/C=N/n2c(C)nnc2C)cc1 | 59.2% |
| COc1ccc(CNC(=O)CCc2nnc3ccc(-c4ccc(Cl)cc4)nn23)c(OC)c1 | 3.64% |

Study 3
Target: Centromere-binding protein 1, full length, N-terminal tag (CBF1, Saccharomyces cerevisiae, UniProt P17106, residues 1-351)
Sequence of UniProt P17106 (whole entry, looked up): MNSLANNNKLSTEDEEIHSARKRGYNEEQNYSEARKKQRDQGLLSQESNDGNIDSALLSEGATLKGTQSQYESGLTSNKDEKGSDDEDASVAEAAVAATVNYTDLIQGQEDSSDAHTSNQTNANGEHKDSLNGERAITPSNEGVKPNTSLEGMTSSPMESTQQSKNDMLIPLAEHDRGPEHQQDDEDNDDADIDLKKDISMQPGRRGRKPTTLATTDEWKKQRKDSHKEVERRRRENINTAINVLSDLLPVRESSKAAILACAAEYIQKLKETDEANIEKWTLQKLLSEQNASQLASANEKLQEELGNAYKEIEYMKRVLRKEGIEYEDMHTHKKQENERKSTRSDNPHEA
Method: protein-binding microarray
Form: double-stranded DNA, one strand shown
Medium: in vitro
Concentration: 0.8 µM
Notes: whole 60-bp probe, no competitor
Direction: higher = stronger binding
All sequences stand within: … GTCTTGATTCGCTTGACGCTGCTG
| Strand | fluorescence intensity [a.u.] |
| --- | --- |
| GAATTCATGATGTGCCACATGAGTACAGCCGATTAG | 541 |
| GAACTGTACACGTATATCGTGACCCGGCGCCAATAG | 1150 |
| GAATCTTCCATTTTTTATGTGACATTATCCTATTAG | 523 |
| CTAGTGAACAATGATCACATTAATGAATCAACCTTC | 530 |
| CTATTCAGGGCTGCTCACAACGTGATATATTTGTTC | 2000 |
| TGTACGAAGCTATCTTGCATGACTATAGTAGTTAGG | 565 |
| GAATATCAGTTACCCCGCGTGCCACCTTCAGTTTAG | 553 |
| CTACGTGTAGCGACGCACGTCAGACATGGATGCTTC | 503 |

Study 4
SMILES: Nc1nc(Nc2ccc(S(N)(=O)=O)cc2)nn1C(=S)Nc1c(F)cccc1F
Effect on: enzyme activity
Action: inhibitor
Concentration: 0.5 µM
Baseline: control
| target | remaining activity [%] |
| --- | --- |
| Glycogen synthase kinase-3 beta (GSK3B, Homo sapiens, UniProt P49841) | 9.03 |
| Serine/threonine-protein kinase Nek1 (NEK1, Homo sapiens, UniProt Q96PY6) | 6.11 |
| Mitogen-activated protein kinase 3 (MAPK3, Homo sapiens, UniProt P27361) | 78.9 |
| Casein kinase I isoform gamma-3 (CSNK1G3, Homo sapiens, UniProt Q9Y6M4) | 20.8 |
| Mitogen-activated protein kinase kinase kinase 14 (MAP3K14, Homo sapiens, UniProt Q99558) | 29.1 |
| Fibroblast growth factor receptor 3 (FGFR3, Homo sapiens, UniProt P22607) | 4.96 |
| Serine/threonine-protein kinase Nek6 (NEK6, Homo sapiens, UniProt Q9HC98) | 78.8 |
| MAP kinase-activated protein kinase 2 (MAPKAPK2, Homo sapiens, UniProt P49137) | 91.1 |
| Ribosomal protein S6 kinase alpha-2 (RPS6KA2, Homo sapiens, UniProt Q15349) | 2.08 |
| Tyrosine-protein kinase JAK3 (JAK3, Homo sapiens, UniProt P52333) | 5.21 |
| Serine/threonine-protein kinase TAO2 (TAOK2, Homo sapiens, UniProt Q9UL54) | 11.4 |
| Tyrosine-protein kinase FRK (FRK, Homo sapiens, UniProt P42685) | 70.6 |
| Casein kinase I isoform gamma-2 (CSNK1G2, Homo sapiens, UniProt P78368) | 14.8 |
